Assay results gathered from unrelated publications.
Every numbered part comes from another study and shows a few of its results, in no order. Several values in a cell are separate wells, animals, samples, runs or records.
UniProt P50750, sequence (whole entry, looked up): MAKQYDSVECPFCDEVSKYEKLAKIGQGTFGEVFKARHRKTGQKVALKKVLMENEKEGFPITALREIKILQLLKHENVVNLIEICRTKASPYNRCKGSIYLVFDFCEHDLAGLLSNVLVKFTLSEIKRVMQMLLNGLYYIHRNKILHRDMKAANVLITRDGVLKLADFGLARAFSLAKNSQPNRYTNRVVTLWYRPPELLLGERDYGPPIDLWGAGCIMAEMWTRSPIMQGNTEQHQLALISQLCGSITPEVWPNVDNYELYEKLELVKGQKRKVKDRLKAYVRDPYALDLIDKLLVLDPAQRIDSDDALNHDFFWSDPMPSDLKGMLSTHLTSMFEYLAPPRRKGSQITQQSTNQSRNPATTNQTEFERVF
UniProt O75417, sequence (whole entry, unmodified, looked up): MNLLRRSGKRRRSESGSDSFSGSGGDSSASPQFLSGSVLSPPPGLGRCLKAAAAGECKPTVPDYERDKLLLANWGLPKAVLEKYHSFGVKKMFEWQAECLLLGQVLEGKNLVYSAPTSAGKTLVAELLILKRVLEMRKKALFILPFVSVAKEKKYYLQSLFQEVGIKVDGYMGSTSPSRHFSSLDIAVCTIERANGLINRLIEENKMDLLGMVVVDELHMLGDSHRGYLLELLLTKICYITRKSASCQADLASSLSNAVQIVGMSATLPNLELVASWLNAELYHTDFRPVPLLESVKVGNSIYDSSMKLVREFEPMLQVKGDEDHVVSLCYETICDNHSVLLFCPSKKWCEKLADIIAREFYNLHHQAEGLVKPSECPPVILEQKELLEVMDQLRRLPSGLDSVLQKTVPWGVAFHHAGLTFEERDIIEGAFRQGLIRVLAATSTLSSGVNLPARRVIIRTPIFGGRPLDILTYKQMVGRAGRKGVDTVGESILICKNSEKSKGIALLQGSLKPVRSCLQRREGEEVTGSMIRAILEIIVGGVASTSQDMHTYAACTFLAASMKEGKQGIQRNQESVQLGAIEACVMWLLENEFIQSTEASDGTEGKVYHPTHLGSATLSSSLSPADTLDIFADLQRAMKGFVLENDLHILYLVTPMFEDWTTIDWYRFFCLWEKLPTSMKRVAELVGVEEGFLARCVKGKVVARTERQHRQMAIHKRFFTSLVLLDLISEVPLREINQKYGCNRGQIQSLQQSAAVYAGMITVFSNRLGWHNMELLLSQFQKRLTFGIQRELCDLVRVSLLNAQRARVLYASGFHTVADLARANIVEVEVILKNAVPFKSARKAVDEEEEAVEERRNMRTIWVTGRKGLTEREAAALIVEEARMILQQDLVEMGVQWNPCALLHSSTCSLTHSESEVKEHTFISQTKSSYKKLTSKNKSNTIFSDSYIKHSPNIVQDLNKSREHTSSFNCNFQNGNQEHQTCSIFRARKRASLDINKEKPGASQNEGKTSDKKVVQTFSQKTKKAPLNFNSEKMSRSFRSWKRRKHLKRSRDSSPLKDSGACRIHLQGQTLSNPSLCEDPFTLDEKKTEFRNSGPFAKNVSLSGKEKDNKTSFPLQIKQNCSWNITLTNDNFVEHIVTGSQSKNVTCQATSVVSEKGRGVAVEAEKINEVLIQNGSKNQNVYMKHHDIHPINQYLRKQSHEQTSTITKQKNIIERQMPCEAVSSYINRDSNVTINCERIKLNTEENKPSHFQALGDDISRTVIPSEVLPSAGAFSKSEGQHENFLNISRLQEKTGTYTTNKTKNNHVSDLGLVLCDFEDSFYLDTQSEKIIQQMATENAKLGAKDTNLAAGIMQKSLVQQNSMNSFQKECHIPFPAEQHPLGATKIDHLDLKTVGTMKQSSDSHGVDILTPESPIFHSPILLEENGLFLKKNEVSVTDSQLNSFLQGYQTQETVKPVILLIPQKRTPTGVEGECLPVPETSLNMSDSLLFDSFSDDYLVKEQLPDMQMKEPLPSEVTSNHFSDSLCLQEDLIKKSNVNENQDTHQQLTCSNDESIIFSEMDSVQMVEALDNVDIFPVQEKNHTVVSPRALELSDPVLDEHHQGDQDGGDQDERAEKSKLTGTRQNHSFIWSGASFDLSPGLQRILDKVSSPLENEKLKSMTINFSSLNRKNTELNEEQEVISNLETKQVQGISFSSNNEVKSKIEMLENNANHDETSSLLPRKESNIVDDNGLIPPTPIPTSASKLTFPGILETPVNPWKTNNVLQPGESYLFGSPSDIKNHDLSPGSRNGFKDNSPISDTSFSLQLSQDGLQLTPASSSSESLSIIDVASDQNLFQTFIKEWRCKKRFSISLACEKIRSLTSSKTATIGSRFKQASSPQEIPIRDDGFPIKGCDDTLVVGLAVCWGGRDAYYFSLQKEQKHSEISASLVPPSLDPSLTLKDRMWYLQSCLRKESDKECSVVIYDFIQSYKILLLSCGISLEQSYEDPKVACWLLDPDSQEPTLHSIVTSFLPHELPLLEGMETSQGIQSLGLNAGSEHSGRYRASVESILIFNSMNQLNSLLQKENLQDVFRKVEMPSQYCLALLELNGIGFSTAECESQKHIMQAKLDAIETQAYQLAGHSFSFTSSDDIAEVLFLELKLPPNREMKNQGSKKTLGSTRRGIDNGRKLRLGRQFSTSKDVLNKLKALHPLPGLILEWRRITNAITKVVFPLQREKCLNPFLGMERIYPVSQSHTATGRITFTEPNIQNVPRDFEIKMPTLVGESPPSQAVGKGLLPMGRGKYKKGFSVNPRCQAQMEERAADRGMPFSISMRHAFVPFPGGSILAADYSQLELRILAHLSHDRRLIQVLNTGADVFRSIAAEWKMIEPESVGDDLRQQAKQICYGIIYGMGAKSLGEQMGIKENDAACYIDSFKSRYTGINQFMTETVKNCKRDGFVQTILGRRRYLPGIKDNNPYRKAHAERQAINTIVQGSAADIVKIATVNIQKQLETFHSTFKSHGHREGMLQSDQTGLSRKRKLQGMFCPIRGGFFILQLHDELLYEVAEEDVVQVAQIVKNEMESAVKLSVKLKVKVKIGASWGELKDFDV
UniProt P42680, sequence (whole entry, looked up): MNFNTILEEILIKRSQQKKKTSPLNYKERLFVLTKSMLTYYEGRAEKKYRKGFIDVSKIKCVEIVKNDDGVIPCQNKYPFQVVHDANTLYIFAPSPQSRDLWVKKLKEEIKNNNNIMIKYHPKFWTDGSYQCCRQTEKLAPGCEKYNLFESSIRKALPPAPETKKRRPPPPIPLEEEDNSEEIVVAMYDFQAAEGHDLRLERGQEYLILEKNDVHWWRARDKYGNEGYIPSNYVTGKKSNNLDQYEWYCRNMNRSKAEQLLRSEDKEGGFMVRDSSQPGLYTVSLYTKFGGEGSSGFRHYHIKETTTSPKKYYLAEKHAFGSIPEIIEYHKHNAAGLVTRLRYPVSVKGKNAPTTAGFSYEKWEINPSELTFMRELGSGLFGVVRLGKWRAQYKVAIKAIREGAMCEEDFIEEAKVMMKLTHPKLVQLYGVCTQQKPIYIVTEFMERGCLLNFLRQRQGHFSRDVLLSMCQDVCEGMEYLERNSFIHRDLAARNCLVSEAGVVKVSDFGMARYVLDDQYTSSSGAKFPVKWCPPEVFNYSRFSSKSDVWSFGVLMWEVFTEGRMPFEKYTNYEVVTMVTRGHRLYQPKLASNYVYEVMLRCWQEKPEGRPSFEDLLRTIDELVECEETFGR
UniProt P41279, sequence (whole entry, looked up): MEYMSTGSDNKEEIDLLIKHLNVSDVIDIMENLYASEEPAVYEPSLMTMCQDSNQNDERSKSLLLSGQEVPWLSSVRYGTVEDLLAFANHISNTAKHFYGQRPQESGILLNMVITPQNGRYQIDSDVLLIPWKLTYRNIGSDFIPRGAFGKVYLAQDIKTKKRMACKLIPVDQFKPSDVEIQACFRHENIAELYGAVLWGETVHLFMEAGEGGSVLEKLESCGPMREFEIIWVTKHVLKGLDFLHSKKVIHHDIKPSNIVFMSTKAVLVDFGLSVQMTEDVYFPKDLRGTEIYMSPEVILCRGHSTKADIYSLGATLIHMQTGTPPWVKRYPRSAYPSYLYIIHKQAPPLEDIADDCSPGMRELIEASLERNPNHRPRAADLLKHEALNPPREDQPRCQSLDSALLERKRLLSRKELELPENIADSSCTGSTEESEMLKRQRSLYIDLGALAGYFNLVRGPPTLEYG

Block 1
SMILES: CC(C)(C)c1cc(C=C(C#N)C#N)cc(Br)c1O
Observed: enzyme activity
Action: inhibitor
Tested at: 0.5 µM
The remaining activity was 171% (TEC (Homo sapiens, UniProt P42680); relative to: control).
Cyclin-dependent kinase 9, with cyclin T1 (CDK9, Homo sapiens, UniProt P50750) — remaining activity: 95.4%.
For MAP3K8 (Homo sapiens, UniProt P41279): remaining activity read 104%.
The remaining activity was 90.4% (PRKCG (Homo sapiens, UniProt P05129)).
For PIM3 (Homo sapiens, UniProt Q86V86): remaining activity read 89.1%.

Block 2
Cell line: HEK-293T
Observed: pseudovirus infection
Technique: FDA-approved drug library counter-screen
Organism: VSV pseudotyped with VSV-G
Tested at: 10 µM
Time: 16 h
Relative to: vehicle-treated
`CCc1cc2c(cc1CC)CC(NC[C@H](O)c1ccc(O)c3[nH]c(=O)ccc13)C2` has a GFP-positive cells of 106%.
With `CCCCC(=O)O[C@H]1CC[C@H]2[C@@H]3CCc4cc(O)ccc4[C@H]3CC[C@]12C` the GFP-positive cells was 77.7%.
The GFP-positive cells of `CCCCN1CCCC[C@H]1C(=O)Nc1c(C)cccc1C` is reported as 122%.
`Nc1ccn(C[C@@H](CO)OCP(=O)(O)O)c(=O)n1` gave a GFP-positive cells of 120%.
The GFP-positive cells of `O=C(C1CCCCC1)N1CC(=O)N2CCc3ccccc3C2C1` (centres unmarked) is reported as 100%.
`CC(=O)Oc1ccccc1C(=O)O` gave a GFP-positive cells of 142%.
For `O=C1CCCC(=O)C1C(=O)c1ccc(C(F)(F)F)cc1[N+](=O)[O-]`, the GFP-positive cells was 118%.
`c1ccc2c(CC3=NCCN3)cccc2c1` has a GFP-positive cells of 115%.

Further values, each from its own experiment
`Cc1cccc([C@H](C)c2c[nH]cn2)c1C` has a remaining activity of 101% (DNA polymerase theta, ATPase domain (POLQ, Homo sapiens, UniProt O75417); enzyme activity, inhibitor; 77 µM; relative to: untreated).
With `Cc1nc(Nc2ncc(C(=O)Nc3c(C)cccc3Cl)s2)cc(N2CCN(CCO)CC2)n1` the inhibition was under 50% (DYRK1B (Homo sapiens, UniProt Q9Y463); 10 µM).
For `CN(C(=O)/C=C/c1ccoc1)[C@@H]1CC[C@@]2(O)[C@H]3Cc4ccc(O)c5c4[C@@]2(CCN3CC2CC2)[C@H]1O5`, the viability was 122% (HaCaT; 100 µM, 60 h).
`CN(N=O)C(=O)N[C@@H]1[C@@H](O)[C@H](O)[C@@H](CO)O[C@@H]1O` gave a body weight of 28.5 g and 34.1 g and 37 g and 30.4 g and 30.2 g (mice, STZ diabetic neuropathy; dose not given, 14 days after STZ).
